Measurements from different studies.
A part holds a random share of what one study measured. Changes are numbered by the printed parent chain.

Set 1
Target: Prothrombin, mature alpha-thrombin (F2, Homo sapiens, UniProt P00734)
Method: aptamer microarray, sandwich
Molecule type: DNA with 2'F-ANA
Sample: in vitro
Concentration: 200 nM
Setting: whole 15-mer aptamer, many near background
Added: Cy3 exosite-II aptamer, 400 nM
Direction: higher = stronger binding
Measurement: mean fluorescence intensity
Sequence: GGTTGGTGTGGTTGG
2'F-ANA at 3 4 6 9 10 11 14: 185 a.u.
2'F-ANA at 2 5 7 8 9 12 13: 240 a.u.
2'F-ANA at 3 4 7 8 15: 913 a.u.
2'F-ANA at 2 3 7 11 14 15: 483 a.u.
2'F-ANA at 1 2 4 6 12 13: 190 a.u.
2'F-ANA at 1 2 4 5 8 9 10 13 14: 62.6 a.u.
2'F-ANA at 3 5 8 10 11 12 15: 69.3 a.u.
2'F-ANA at 1 2 3 4 6 9 10 13 14: 52.4 a.u.
2'F-ANA at 2 3 6 8 10 12 13 14: 324 a.u.
2'F-ANA at 1 2 4 5 6 8 9 10 12: 50.1 a.u.
2'F-ANA at 2 4 5 7 8 9 11 12: 139 a.u.
2'F-ANA at 2 3 7 9 12 13 14: 501 a.u.
2'F-ANA at 3 4 5 7 8 9 11 12 13 14 15: 53.6 a.u.
2'F-ANA at 3 5 7 8 9 10 13 14 15: 111 a.u.
2'F-ANA at 1 6 7 8 12: 453 a.u.
2'F-ANA at 1 3 9 10 11 13 15: 120 a.u.
2'F-ANA at 1 3 6 7 11 12 14 15: 99 a.u.
2'F-ANA at 1 3 4 6 8 9 10 12 13 14: 53.5 a.u.
2'F-ANA at 1 2 3 4 5 8 10 11 14: 48.4 a.u.
2'F-ANA at 3 10 11 12 13 15: 620 a.u.
2'F-ANA at 1 3 5 6 8 13: 53 a.u.
2'F-ANA at 2 3 5 6 7 8 10 11 12: 58.7 a.u.
2'F-ANA at 2 4 7 9 10 14 15: 69.3 a.u.
2'F-ANA at 3 4 5 6 7 10 11: 51.5 a.u.
2'F-ANA at 1 3 4 6 10 13 15: 58 a.u.

Set 2
Target: RNA binding protein fox-1 homolog 2, RRM domain, GST-SBP tag (RBFOX2, Homo sapiens, UniProt O43251-10, residues 100-194)
Method: RNA Bind-n-Seq
Molecule type: RNA
Sample: in vitro
Concentration: 365 nM
Setting: natural RNA segment, single round, ends assumed
Baseline: no-protein control
Direction: higher = stronger binding
Measurement: RBNS enrichment (R)
Shared flanks, not repeated: GGGAGUUCUACAGUCCGACGAUC … UGGAAUUCUCGGGUGCCAA
Residues (chain): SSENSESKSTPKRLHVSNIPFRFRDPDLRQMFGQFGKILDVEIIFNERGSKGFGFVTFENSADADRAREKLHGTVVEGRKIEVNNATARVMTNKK
GAAUAAAAUAUGUUGGUGGUAUUAACACCUCCAGUAAGAUAAGUCAUUGGUACGGUUUUUCUAAGGGCCGCAGUGAGAUGUAGCAGAAGAAAUAUGUUUAUUUUGGGCAA: 0.306
GUCUUUCUCUCCUCUCCCUCCAUCCCUCAAAAGAUCUUUAUGCAUUUCCCACUACUCCCUUACUGUCUUUUAGCAUUCAGAGAAAAAGCCAACUUGCUUAAAGAGGAAUC: 0.917
AGCUAAGCCUCUCUUCAUCUGGAAGAAGAGGCAAGGGGGCAGGAGACCAGGCUCUAGCUCUGGGCCCUCCUUCAGCCCCCAUCAUGGGAAUAAAUUAAUUUUCUCAAUGU: 0.304
AGCAGGCCUGGAAAUGAAUGGAACUAGUACUCCUGAGAAAUAAAUUGUAUAUCCCCCAAAUUAAAAUUUACUUCAAAGGUGUUAAAGAUUUCAUGUCCUAUAUUAAAGUA: 0.733
GUGCUAACACUUUUGCUCUUGGUUGAUGGACAAGAUAGAGGCCAGGGAGUGAAUAACAGUGAGAAGAGGAAUGGCAGGUGCCUGUUUCAUAGUCAGUGAGUGUGAAAGUU: 0.804
UGGCUCAUCUAGUCUUCCUUUUGUAGCGCAUGGUUGGGAGGAAAAAGUGCAUGCCUCUGUACGUCACACCUUUCUCACCCCUCCCUACCAACACGAGGUGUUUGGUCUGC: 7.71
UUGUGUGGAGUGGUGUGUCAGCCCUUGAACAUCUCCUCCAAAGAGACUAGAAGAGUCUUAAAUUAUAUGUGGGAGGAGGAGGGAUAGAACAUCACAACACUGCUCUAGUU: 1.66
ACUGGGAUAUAUUUUUCUAAUUUCUAGUGAUCUUAGUAUGCAUAUUUUUUUCUAACCUUUCAAAAGUUUGAUUCAACCGUCUUACCUUGUAGUGUUAAGAUUCCAUACAG: 0.316
GGCUAUUUUCUCUUCUCGCCGUAGUGCCGUUGGUUUCACAUGAUUGCACUUUUGUGGGUCGCAAGGUGAUACAUACGUGUAUUACUUGGUCACUGGAUGCAGAAGUACCC: 0.405
UUGGAGGACUUUAUGGAAUUUAAGAAAUACAUUUUGUGUGCAUAUUGUUUCAUAGCAAGAAUUCGUUGCAAAAAUGCUUUAUUUUUGAACAAUGCUUGGAAAUAUUAUGU: 0.51
GAUUUGCCAUUUUACUGAAAUGGAAAAUGAUUUUUUUUCAAAUAAAUACUUAUAUUGUUCAUGUUCCAAUUAUUCAGUUCCUUUAUGAGGGAUCGUUUCUAUUUCUGCCU: 0.589
UAUACAGUUUUCCUUAAUUUGUUGACAUAUAAAUGGUAAAUUAUAUUUAGGCUUAUCCUGUUUUGAAAUGAUGGUAGUCAUCUUUCUUACUGCUACUUUCAUGUUGCUUU: 0.233

Set 3
Target: RING finger protein unkempt homolog, zinc fingers 1-6, GST-SBP tag (UNK, Homo sapiens, UniProt Q9C0B0, residues 30-357)
Method: RNA Bind-n-Seq
Molecule type: RNA
Sample: in vitro
Concentration: not given
Setting: RNA with constant flanks, human-mouse chimeric sites, ends assumed
Baseline: input RNA pool
Direction: higher = stronger binding
Measurement: bound/input enrichment
Shared flanks, not repeated: GGGAGUUCUACAGUCCGACGAUC … CAACAGAGGAUUGAGCAUCA
Residues (chain): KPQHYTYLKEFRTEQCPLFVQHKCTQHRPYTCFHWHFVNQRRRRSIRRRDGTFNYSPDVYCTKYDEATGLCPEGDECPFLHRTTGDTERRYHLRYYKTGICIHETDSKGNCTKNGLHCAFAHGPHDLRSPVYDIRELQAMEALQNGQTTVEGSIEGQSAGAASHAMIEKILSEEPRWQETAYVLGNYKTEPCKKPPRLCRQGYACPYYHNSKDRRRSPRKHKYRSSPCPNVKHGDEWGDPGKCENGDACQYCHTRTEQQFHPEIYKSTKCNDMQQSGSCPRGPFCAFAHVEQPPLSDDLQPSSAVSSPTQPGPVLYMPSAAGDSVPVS
AUCAAAUAUUUUGGGGACAUCAUUAGUGUGGGACAGAGAUUGUUGCAAGGAGCUCGGAUCUUAGGGAUUCCAGUUAUCAUAACGGAACAAUACCCCAAAGGACUUGGCAGCACCGUUCAA: 0.268 ratio
UCGGAUGCUGUGCUGGGUCACUUUUCAUAUCCUGAUCCUUCACAGUGGACAGAUGAAGAACUGGGAAUCCCUCCUGAUGACGAGGACUGACACUGUAAACUCUCUGGCACUCUGUACGCA: 0.433 ratio
CAGGGCACAGCACCUACCUCCUCCUUCUUUCCACACCUGCAAACUCUUUUACUUGGGCUGAAUAUUUAGUGUAAUUACAUCUCAGCUUUGAGGGCUCCUGUGGCAAAUUCCCGGAUUAAA: 0.6 ratio
UGUGAACUGUCUCUUGAGAUCUAAAAACAAGAUGACUUUUCCUGGCACAUAUUCCAAAGCAUAGACUUUGUUGCCUGCUGCUUAUUGUCUAAUUUACAGGGAUAUUUAAUUUUGUAAGGU: 0.189 ratio
GUGACAGGUGUUAAGAUUUCCCCUCAGCAAAGAAGUGCAGUAGUCACCAUAAUUCCAUCUGUGGUGAAUGCCAAUCAGAUUGUGGAGCUGGUCCCAGACCUCAGUUUAGACAUGGGAACU: 0.276 ratio
CAGGGCAUCAUCUCUCGUGCUGUUAGACACCUGUUCAAGAGUAUUGAUGAGAAAAAGACCUCAGCGAUUAAAAACGGGCUGCCCCCUCCAGAUUUUAAAGUGAAUGCCCAGUUCCUAGAG: 0.348 ratio
GCUCUUGGCAAUGUAAUCAGCGCCUUGGGGGACAAGAGCAAGAGAGCCACCCAUGUCCCUUACAGAGAUUCCAAGCUGACAAGACUCUUGCAGGAUUCCCUUGGGGGUAACAGCCAAACC: 0.068 ratio
UGUGCAUAUGAUGCUUGAGAUGGUUUUUGCAAAAGCAGACAUCGCUGCAAGGUAAUCACAAUAGAUAAAAGUGGUAUUUUAAACCUUUGAAAGGAAUGGAUGUAACUGUACCUUGGUACA: 0.408 ratio
UUACCCGAGAACGAGGAUGAGCUGGAGAGCACCAACAGGCGCUACACCAAGAGGGACUGCAGCACUUUCCUCAGAACUAGCGAGACGGGCAUCGUGGAUCAGGUUAUGGUCACUCUCAAC: 0.134 ratio
GAUAAGAAAAGCUUGUUGGAGACCCGCUUGCAUGUCACUGGUAGAGACCUGAGGUGUAAAAUAGCUGAAACCUUUGGAUUUCAAGAAAAUUACAUCAAGAUCGUAAUAAAUAAGAAACAG: 0.376 ratio
UAAGUCCUGUGCCAGCACUUCGCUCAUUAUAUUUUAAAUUCUGGACCAAUAGUGUUUGUUUCCUGAUUAUUGUAUCCAAUACUUUGCCUAGUAUGUAACUCAUGCUUACUGAUAAUAAAA: 2.02 ratio

Set 4
Target: Protein C-ets-1 (ETS1, Homo sapiens, UniProt P14921, residues 1-441, full length assumed)
Method: protein-binding microarray
Molecule type: double-stranded DNA, one strand shown
Sample: in vitro
Concentration: not given
Setting: k-mer, scored over probes, only values ≥0.25
Direction: higher = stronger binding
Measurement: E-score
Residues (chain): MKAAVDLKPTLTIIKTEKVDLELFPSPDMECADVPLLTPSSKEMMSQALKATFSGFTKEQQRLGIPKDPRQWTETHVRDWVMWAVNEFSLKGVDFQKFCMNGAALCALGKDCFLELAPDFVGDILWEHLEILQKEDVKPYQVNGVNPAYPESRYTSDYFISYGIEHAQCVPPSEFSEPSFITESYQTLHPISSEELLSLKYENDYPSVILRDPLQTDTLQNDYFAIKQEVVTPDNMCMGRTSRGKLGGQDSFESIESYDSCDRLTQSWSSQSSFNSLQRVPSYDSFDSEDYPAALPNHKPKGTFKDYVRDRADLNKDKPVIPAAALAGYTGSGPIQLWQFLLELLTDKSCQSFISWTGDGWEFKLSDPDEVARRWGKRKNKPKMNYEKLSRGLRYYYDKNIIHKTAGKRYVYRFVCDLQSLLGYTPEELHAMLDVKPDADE
GGATGAAC: 0.291
CCGGTATC: 0.37
CGGAATTA: 0.258
ACGGAAAA: 0.303
GGACGTCC: 0.395
CCGGGATC: 0.292
CAGTTTCC: 0.429
GGAATTGA: 0.274
CCGGATGC: 0.495
AAGCTTCC: 0.376
ACGTATCC: 0.254
GCGGACGA: 0.342
AGGAAGAT: 0.344
AAGGATGC: 0.368
CAGTATCC: 0.31
AAGTATCC: 0.273
CGTCCGAC: 0.263
CATGGGAA: 0.292
ACATCCGG: 0.498
GTCCTGTA: 0.343
GAGGAAGC: 0.416
AATCCGGT: 0.434
CCTCCCCG: 0.319
AGAGGATG: 0.412
ATTTCCCC: 0.36

Set 5
Target: CCNE1, cyclin fold, Cln2 fusion (human)
Method: yeast growth competition, sequencing
Sample: yeast
Setting: strong parent motif
Baseline: not given
Direction: higher = stronger binding
Measurement: normalised enrichment score
Parent: CCP110 docking peptide (human); EKVKRRLDLDIDG; partner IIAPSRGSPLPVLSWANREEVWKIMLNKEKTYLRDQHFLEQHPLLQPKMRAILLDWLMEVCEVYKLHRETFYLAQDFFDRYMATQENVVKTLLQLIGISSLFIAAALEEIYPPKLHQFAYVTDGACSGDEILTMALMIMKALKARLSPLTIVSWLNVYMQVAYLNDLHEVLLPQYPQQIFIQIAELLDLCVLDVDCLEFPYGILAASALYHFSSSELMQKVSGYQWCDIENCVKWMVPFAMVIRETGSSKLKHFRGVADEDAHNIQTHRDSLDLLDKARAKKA
EAVKRRLDLDIDG [K2A]: 2
EKVKARLDLDIDG [R5A]: 0.124
EKAKRRLDLDIDG [V3A]: 1.72
EKVARRLDLDIDG [K4A]: 1.06
EKVKKRLDLDIDG [R5K]: 0.363
EKVKRRLDADIDG [L9A]: 0.243
EKVKRRLDLAIDG [D10A]: 1.77
EKVKRRLDLDADG [I11A]: 1.44
